Published values pooled from the literature.
Every numbered part comes from another study and shows a few of its results, in no order.

Set 1
Target: Phosphate system positive regulatory protein PHO4, full length, GST-tagged (PHO4, Saccharomyces cerevisiae, UniProt P07270, residues 1-312)
Method: competition protein-binding microarray
Form: double-stranded DNA, one strand shown
Medium: in vitro
Concentration: 2 µM
Notes: whole 60-bp probe, lowest competitor level
Together with: Cbf1 competitor, 0.05 µM
Reading: higher = stronger binding
Endpoint: fluorescence intensity
All sequences stand within: … GTCTTGATTCGCTTGACGCTGCTG
Construct (chain): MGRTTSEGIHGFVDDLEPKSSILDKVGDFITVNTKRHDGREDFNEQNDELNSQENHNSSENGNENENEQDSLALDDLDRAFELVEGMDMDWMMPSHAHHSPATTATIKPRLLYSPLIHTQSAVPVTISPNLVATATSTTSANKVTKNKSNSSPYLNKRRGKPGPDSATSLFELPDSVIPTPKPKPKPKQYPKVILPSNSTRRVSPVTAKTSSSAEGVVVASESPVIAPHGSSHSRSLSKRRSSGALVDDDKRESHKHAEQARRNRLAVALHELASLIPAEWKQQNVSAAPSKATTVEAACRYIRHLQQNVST
GTCTTGTCTCATTGCTAGGTGGGTGTCCCCACTTCA: 4280 a.u.
GAATAGTTTTCTGTACACGTGGAGGTATAGTTCTCA: 16700 a.u.
TTCCTAGACTGGTCCCACGTTGGGAAAAACCAATCA: 12600 a.u.
GCTCAGGAGCCCTGACTCGTGTTGGCTCGAGTAAAC: 7000 a.u.
GCTCTTAAGTCCTCGGTCGTGATGGCGTCAGCCTGT: 4890 a.u.
GTCTTGTCTCATTGCTACGTGGGTGTCCCCACTTCA: 7890 a.u.
GGTTCCATTAGTGATGGCGTGCTTTGCTCAACACAA: 7090 a.u.

Set 2
Target: Sal-like protein 4, full length isoform A (SALL4, Homo sapiens, UniProt Q9UJQ4, residues 1-1053)
UniProt Q9UJQ4, sequence (whole entry, looked up): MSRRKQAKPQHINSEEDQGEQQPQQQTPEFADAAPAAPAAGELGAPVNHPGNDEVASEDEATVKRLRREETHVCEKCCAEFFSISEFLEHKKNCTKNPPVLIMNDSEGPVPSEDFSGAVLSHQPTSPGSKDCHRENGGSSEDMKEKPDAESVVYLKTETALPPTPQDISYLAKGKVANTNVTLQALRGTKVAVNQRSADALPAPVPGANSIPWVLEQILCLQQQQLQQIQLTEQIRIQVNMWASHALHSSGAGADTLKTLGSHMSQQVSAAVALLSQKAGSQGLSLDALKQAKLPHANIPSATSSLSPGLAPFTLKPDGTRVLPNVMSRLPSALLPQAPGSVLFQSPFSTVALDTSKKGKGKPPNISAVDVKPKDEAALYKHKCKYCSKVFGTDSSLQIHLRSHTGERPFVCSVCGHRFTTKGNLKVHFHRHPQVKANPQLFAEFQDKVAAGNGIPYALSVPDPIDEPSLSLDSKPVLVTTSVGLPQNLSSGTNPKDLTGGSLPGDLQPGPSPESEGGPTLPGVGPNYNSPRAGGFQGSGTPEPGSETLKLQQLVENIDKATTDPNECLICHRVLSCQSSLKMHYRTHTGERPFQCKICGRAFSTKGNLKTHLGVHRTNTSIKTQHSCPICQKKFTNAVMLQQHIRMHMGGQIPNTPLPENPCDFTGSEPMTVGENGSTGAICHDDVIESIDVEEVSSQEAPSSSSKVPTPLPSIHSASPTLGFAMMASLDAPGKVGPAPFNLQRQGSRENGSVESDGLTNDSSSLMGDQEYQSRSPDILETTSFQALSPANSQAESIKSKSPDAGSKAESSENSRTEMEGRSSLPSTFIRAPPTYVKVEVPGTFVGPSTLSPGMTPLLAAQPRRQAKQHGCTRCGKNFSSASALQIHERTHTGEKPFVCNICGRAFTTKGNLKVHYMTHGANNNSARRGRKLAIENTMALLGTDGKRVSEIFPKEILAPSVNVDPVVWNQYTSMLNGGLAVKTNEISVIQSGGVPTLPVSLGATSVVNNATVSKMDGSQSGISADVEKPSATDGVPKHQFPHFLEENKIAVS
Method: universal PBM
Form: double-stranded DNA, one strand shown
Medium: in vitro
Concentration: 600 nM
Notes: 8-mer, flanks averaged, mean of replicates
Reading: higher = stronger binding
Endpoint: E-score
GAGTTACA: 0.113
CCGTGGAG: -0.161
TCAGCTCA: -0.116
CTACACAA: 0.116
GGCAGGAC: -0.378
GTCCTAAC: 0.102
CAACCTAG: -0.074

Set 3
Target: Histone acetyltransferase KAT6A, winged helix 2, GST fusion (KAT6A, Homo sapiens, UniProt Q92794, residues 85-181)
Method: protein binding microarray
Form: double-stranded DNA, one strand shown
Medium: in vitro
Concentration: not given
Notes: 8-mer, flanks averaged, mean of 2 arrays, mostly near background
Reference: not given
Reading: higher = stronger binding
Endpoint: E-score
Construct (chain): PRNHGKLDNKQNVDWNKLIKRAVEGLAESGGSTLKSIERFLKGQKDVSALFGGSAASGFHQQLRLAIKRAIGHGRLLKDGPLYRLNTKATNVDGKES
CTCATCCA: -0.00911
AAGCCTTC: -0.247
ACATAGAC: -0.248
ATAAAATG: 0.115
ATCGTGCG: 0.117
AGCAGGAT: -0.0683
GAACTGGC: 0.122

Mixed results
PhoQ, residues 284 288 289 292 302 303 SLKLQV  fold induction (PhoP, residues 12 14 15 18 19 GHCSL (Escherichia coli, UniProt P23836); Sort-seq, refers to: YFP reporter; E. coli; PhoQ-PhoP variant library, together with: 10 µM Mg2+; reference: high Mg2+ state, higher = stronger signaling): 8.85
